Results gathered from unrelated publications.
Each numbered part is a random draw from the data of one study; scales do not carry over between parts. Changes are numbered by the printed parent chain.

Set 1
Target: RING finger protein unkempt homolog, zinc fingers 1-6, GST-SBP tag (UNK, Homo sapiens, UniProt Q9C0B0, residues 30-357)
Method: RNA Bind-n-Seq
Molecule type: RNA
Sample: in vitro
Tested at: not given
Setting: RNA with constant flanks, human and mouse sites, ends assumed
Relative to: input RNA pool
Direction: higher = stronger binding
Construct (chain): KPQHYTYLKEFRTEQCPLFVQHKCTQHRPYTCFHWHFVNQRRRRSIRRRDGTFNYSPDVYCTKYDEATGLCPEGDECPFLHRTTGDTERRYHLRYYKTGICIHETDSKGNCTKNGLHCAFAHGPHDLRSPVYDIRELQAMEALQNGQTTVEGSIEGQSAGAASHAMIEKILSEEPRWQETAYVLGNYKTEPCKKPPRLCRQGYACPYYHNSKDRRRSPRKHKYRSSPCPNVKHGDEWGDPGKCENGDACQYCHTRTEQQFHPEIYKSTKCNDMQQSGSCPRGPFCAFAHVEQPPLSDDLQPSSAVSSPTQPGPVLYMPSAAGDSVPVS
For `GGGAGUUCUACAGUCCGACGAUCGAGGAUGCUGCCUCCUACGUUAGAAAGGUUAUUCCAAAAGAUUAUAAGACAAUGGCUGCUUUAGCCAAGGCCAUCGAAAAGAAUGUGCUGUUUUCACACCUUGAUGAUAACGAGAGAAGUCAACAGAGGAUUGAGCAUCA`, the bound/input enrichment was 2.57 ratio.
`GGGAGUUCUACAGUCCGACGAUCAGCGACUCCUAUAAUUUCUAAUAUUUAAUUUGUUCUUUUAUAUAUAUAUAUUUUUUUGUAAAUCUAUUAUGACAGUUUACAACUAAGCCUUUUUAUAAACUUUUUUUAAAAGUGAUACUUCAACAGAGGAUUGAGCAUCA` gave a bound/input enrichment of 126 ratio.
The bound/input enrichment of `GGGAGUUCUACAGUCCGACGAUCGAAAUUGGUAAUCGAUACAUCGAGAUAUUUCCAAGCAGAAGGAAUGAAGUUCGAACACAUGUCGGUUCUUAUAAGGGAAAGAAAAUCGCAUCUUUUCCUACUGCUAAGUAUAUAACUGAGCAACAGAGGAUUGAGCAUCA` is reported as 0.0966 ratio.
With `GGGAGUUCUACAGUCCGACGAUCCCAUGUUCUAAAGUCAUCGUUCGGUUCUUAACCGUGAUGAUGAAGCACGGAUACAUUGGUGAAUUUGAGAUCAUUGAUGAUCACAGAGCUGGGAAGAUUGUUGUGAACCUCACAGGAAGGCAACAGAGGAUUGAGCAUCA` the bound/input enrichment was 0.226 ratio.
`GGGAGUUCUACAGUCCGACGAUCGGCUCUUGCCCUUUUCAGGAUAUGAGACUAGACUCUGCCGUGCCUCCUUUUAAUAUCUCAUUAAAAAGCAUUUGUCAAUUUCUCUGCCUCCCAGCCGACAACACAAAAUUAUUUUCCAACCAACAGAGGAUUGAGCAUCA` has a bound/input enrichment of 0.489 ratio.
The bound/input enrichment of `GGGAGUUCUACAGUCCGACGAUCGAAACUAAACAUCACAGCAAGCUCUAUCUCUGAGCUAUAAUUUGUUUUUAAUGCAAAGACACUAGUUUGAUAAUAUAUACUGUAAUCCUGAAACAUUUGUGUUACUUACCUUUGGAGGUACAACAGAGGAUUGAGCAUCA` is reported as 0.421 ratio.
`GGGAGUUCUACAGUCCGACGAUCUCUCCAUCUUGUUACAUUCCACUGCGGAGACUACAGGAUUUGGCCUCCAUGAUCAAUGUAGAAUAUUUAAGUGGGUCUGCUGAUGGAUCAGAAUCCUUUCAAGACCCUGCAAAAAGUGAUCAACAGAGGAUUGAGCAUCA` has a bound/input enrichment of 0.617 ratio.
The bound/input enrichment of `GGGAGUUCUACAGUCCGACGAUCAAAGGAGAAUCUGGCCAGUCAUGGCCAAGGUUAACAAAAGAAAGGGCAAAGCUUAAUUGGCUUAGUGUCGACUUCAAUAAUUGGAAAGACUGGGAAGAUGAUUCAGAUGAAGACAUGUCUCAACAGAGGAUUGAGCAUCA` is reported as 0.358 ratio.
For `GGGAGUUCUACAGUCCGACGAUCUAUGGUUUUGAGAAGCCCUCUGCCAUCCAGCAGCGAGCCAUUCUACCUUGUAUCAAGGGUUAUGAUGUGAUUGCUCAAGCCCAAUCUGGGACUGGGAAAACGGCCACAUUUGCCAUAUCGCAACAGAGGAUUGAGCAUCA`, the bound/input enrichment was 0.221 ratio.
`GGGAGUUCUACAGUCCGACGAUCGGUCGGCUCUACCAAGUAGAAUAUGCUUUUAAGGCUAUUAACCAGGGUGGCCUUACAUCAGUAGCUGUCAGAGGGAAAGACUGUGCAGUAAUUGUCACACAGAAGAAAGUACCUGACAAACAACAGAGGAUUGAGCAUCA` has a bound/input enrichment of 0.532 ratio.
For `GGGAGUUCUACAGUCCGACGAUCCAGGGACUCUGGUGCCAAAUCCAGAAAGAUCUGCUCUGCUGCCCUGAACUCUUACGGCAAUUUAGGUUUCUCAUUUUUCUUUUCUUUUUACAUAUGUACAAAUUGUUUUAAGCUUUGGCCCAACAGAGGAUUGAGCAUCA`, the bound/input enrichment was 7.24 ratio.

Set 2
Target: Interferon regulatory factor 5, full length, phosphomimetic (IRF5, Homo sapiens, UniProt Q13568-2, residues 1-514, K96S/S451D/S453D/S456D/S462D)
Method: protein-binding microarray
Molecule type: double-stranded DNA, one strand shown
Sample: in vitro
Tested at: 250 nM
Setting: 60-bp whole probe
Added: salmon DNA 0.4 mg/ml
Relative to: random background probes
Direction: higher = stronger binding
Constant ends, left off below: GCCTAGCAC … GTCTTGATTCGCTTGACGCTGCTG
`GTAAGCAAAAATGATTGGTTGTGCTAG` has a log fluorescence of 0.133 z-score.
The log fluorescence of `TCAAGCCTCTGTTTTGAACTGTGCTAG` is reported as 0.081 z-score.
The log fluorescence of `TCAGCTTTCTTTTTGCAACTGTGCTAG` is reported as 1.91 z-score.
The log fluorescence of `TTTTGCTTTCCTTTATGTACGTGCTAG` is reported as 5.34 z-score.
`TACAGCAGGGAGGGAGGCACGTGCTAG` gave a log fluorescence of -0.383 z-score.
With `TCATAGCTTCCTTTCGCACTGTGCTAG` the log fluorescence was 1.93 z-score.
With `GACGGAGTGGGGACTGGGGACGTGCTA` the log fluorescence was -0.477 z-score.
`TCAATTATTGTCTTCCCACTGTGCTAG` gave a log fluorescence of 0.684 z-score.
`TTAGGTATCGAGTTTCGGTTAGTGCTA` gave a log fluorescence of 9.56 z-score.
`GACGAACTGAGACTGCAGACGTGCTAG` has a log fluorescence of -0.38 z-score.
`TTAGGTATCGACTATCGGTAAGTGCTA` gave a log fluorescence of 7.29 z-score.
With `GACGATTGCGGGTTTCGAGACGTGCTA` the log fluorescence was 1.64 z-score.
With `CCCTGTTTCTACTGTCTGTTTGTGCTA` the log fluorescence was 1.73 z-score.
`ATGGAAATCTCAATGGGTTAGTGCTAG` gave a log fluorescence of 0.375 z-score.
`GACGGTATCCTTCTCCTGAGGTGCTAG` gave a log fluorescence of 0.0142 z-score.
The log fluorescence of `GACGGTCTCGGACTAGGGACGTGCTAG` is reported as -0.243 z-score.
`CTTTTTTTTTTTTTCTGATCGTGCTAG` has a log fluorescence of 1.26 z-score.
`GACGGACTGCGTTTCCTGACGTGCTAG` has a log fluorescence of -0.542 z-score.
The log fluorescence of `TTATGACTGGGGACTGGGTTAGTGCTA` is reported as -0.0872 z-score.
`CTACGCCTGCAGGTGAGCCGGTGCTAG` has a log fluorescence of -0.613 z-score.
`TTAGAACTGGGGTACCGATTAGTGCTA` gave a log fluorescence of -0.364 z-score.

Set 3
Target: CREB3L4, bZIP domain (human)
Method: DHFR protein complementation
Sample: yeast
Setting: single substitutions, most at no-binding floor
Relative to: wild-type JUN-FOS pair
Direction: higher = stronger binding
Starting sequence: JUN, bZIP domain (human); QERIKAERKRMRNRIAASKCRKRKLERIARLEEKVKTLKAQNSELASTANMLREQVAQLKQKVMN; partner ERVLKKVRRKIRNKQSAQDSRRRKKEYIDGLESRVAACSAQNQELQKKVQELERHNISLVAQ
`E33L` gave a binding fitness of -1.42 natural log.
`I28C` has a binding fitness of -1.11 natural log.
The binding fitness of `E54L` is reported as -1.44 natural log.
The binding fitness of `T48N` is reported as -1.45 natural log.
`T48R` gave a binding fitness of -1.25 natural log.
The binding fitness of `E32S` is reported as -1.38 natural log.
`L31G` has a binding fitness of -1.47 natural log.
With `E44R` the binding fitness was -1.39 natural log.
With `A49W` the binding fitness was -1.49 natural log.
`R30M` has a binding fitness of -1.49 natural log.
With `A29D` the binding fitness was -1.36 natural log.
The binding fitness of `S47F` is reported as -1.31 natural log.

Set 4
Target: CCNB2, cyclin fold, Cln2 fusion (human)
Method: yeast growth competition, sequencing
Sample: yeast
Setting: weak parent motif
Relative to: not given
Direction: higher = stronger binding
Starting sequence: PKN2 docking peptide (human); VSAVRKLDFSDTM
`VSAVRRLDFSDTM [K6R]` — result for “normalised enrichment score”: 0.971.
Under “normalised enrichment score”, `VSAVRKLDASDTM [F9A]` is recorded as 0.0409.
`VSAVRKLDFSDHM [T12H]`: “normalised enrichment score” 0.526.
Under “normalised enrichment score”, `VSTVRKLDFSDTM [A3T]` is recorded as 0.496.
For `VSWVRKLDFSDTM [A3W]`, “normalised enrichment score” read 0.975.
`VSAVHKLDFSDTM [R5H]` — result for “normalised enrichment score”: -0.292.
`VSAVRKLWFSDTM [D8W]`: “normalised enrichment score” -0.0544.
Under “normalised enrichment score”, `VSAVSKLDFSDTM [R5S]` is recorded as -0.167.
For `VSRVRKLDFSDTM [A3R]`, “normalised enrichment score” read 0.51.
`VSPVRKLDFSDTM [A3P]`: “normalised enrichment score” 0.486.
`VSAVRKLDDSDTM [F9D]` — result for “normalised enrichment score”: -0.0826.
`VSAVKKLDFSDTM [R5K]` — result for “normalised enrichment score”: 0.215.
For `VSAHRKLDFSDTM [V4H]`, “normalised enrichment score” read -0.214.
`VSAVRKLNFSDTM [D8N]`: “normalised enrichment score” 0.298.
Under “normalised enrichment score”, `VSASRKLDFSDTM [V4S]` is recorded as 0.376.

Set 5
Target: ABI1, truncated, D143A, DHFR fusion (Arabidopsis thaliana)
Method: DHFR PCA, deep sequencing
Sample: yeast
Setting: methotrexate growth selection, single substitutions
Added: (+)-ABA 0.032 µM
Relative to: wild-type fitted maximum
Direction: higher = stronger binding
Starting sequence: PYL1, truncated, DHFR fusion (Arabidopsis thaliana); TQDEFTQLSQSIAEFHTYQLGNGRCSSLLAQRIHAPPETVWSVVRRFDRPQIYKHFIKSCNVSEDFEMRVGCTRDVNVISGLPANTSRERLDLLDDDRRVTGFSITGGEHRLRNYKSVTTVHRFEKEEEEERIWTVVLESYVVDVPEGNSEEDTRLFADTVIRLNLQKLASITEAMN
`E64S` — result for “relative binding score”: 32.4%.
`E147M`: “relative binding score” 4.22%.
`V43S`: “relative binding score” -3.62%.
`S26Y` — result for “relative binding score”: -2.09%.
Under “relative binding score”, `S27Y` is recorded as 5.22%.
`D97F` — result for “relative binding score”: 11.7%.
For `D92C`, “relative binding score” read -8.37%.
Under “relative binding score”, `T154V` is recorded as 37.7%.
For `E125S`, “relative binding score” read 46.1%.
`D159N` — result for “relative binding score”: 13.6%.
`D92P`: “relative binding score” 5.33%.
`H34E`: “relative binding score” 31%.
`L112Q`: “relative binding score” -0.578%.
For `R111M`, “relative binding score” read 18%.
For `R69H`, “relative binding score” read 13.3%.
`T6I`: “relative binding score” 27.7%.
`V136C`: “relative binding score” 1.4%.

Set 6
Target: Protein max, full length (MAX, Homo sapiens, UniProt P61244-2, residues 1-151)
Method: protein-binding microarray
Molecule type: double-stranded DNA, one strand shown
Sample: in vitro
Tested at: not given
Setting: k-mer, scored over probes, only values ≥0.25
Direction: higher = stronger binding
For `CATTGCAC`, the E-score was 0.319.
With `CATGCGTA` the E-score was 0.427.
`GGTCACGA` gave an E-score of 0.295.
`CATGCAAC` gave an E-score of 0.393.
`ACCCCACG` gave an E-score of 0.281.
For `CACGCCGC`, the E-score was 0.398.
For `ATGCGGAC`, the E-score was 0.305.
`GCACCTGA` has an E-score of 0.269.
The E-score of `CACTCCCC` is reported as 0.277.
`ACGCGACG` has an E-score of 0.304.
With `ATGCCGCG` the E-score was 0.256.
The E-score of `ACCCACGC` is reported as 0.409.
With `ACACGCAT` the E-score was 0.389.
`CGCTCACG` has an E-score of 0.294.
The E-score of `CGCGGACC` is reported as 0.265.
For `AAGGCACG`, the E-score was 0.337.
With `GAGCATGA` the E-score was 0.342.

Mixed results
With `PhoQ, residues 284 288 289 292 302 303 SCKMEA` the fold induction was 24.4 (PhoP, residues 12 14 15 18 19 IQFRS (Escherichia coli, UniProt P23836); Sort-seq, refers to: YFP reporter; E. coli; PhoQ-PhoP variant library, added: 10 µM Mg2+; relative to: high Mg2+ state, higher = stronger signaling).

Repeated from above (set 6):
`ACCCCACG` gave an E-score of 0.281.
For `CACGCCGC`, the E-score was 0.398.
For `ATGCGGAC`, the E-score was 0.305.
`GCACCTGA` has an E-score of 0.269.
The E-score of `CACTCCCC` is reported as 0.277.
`ACGCGACG` has an E-score of 0.304.
With `ATGCCGCG` the E-score was 0.256.
The E-score of `ACCCACGC` is reported as 0.409.
